{"data": "Measured values pooled from the literature", "note": "Protocols differ between the studies behind these lines. Values joined by “and” are separate records of one study, mostly repeats; a detail may differ. ± gives the spread as reported."}
{"Compound": "CCOC(=O)n1ccn(C)c1=S", "test system": "hyperthyroid men", "setting": "dose not given, 6 months", "scale": "relative to: baseline", "measurement": "seminal fluid volume", "value": "increased"}
{"Compound": "NC(=O)c1cnc2[nH]ccc2c1N[C@@H]1[C@@H]2CC3C[C@H]1C[C@@](O)(C3)C2", "test": "flow cytometry", "test system": "Japanese healthy men, blood", "setting": "oral, 10 mg twice daily, 72 h after day 7 dose", "scale": "relative to: baseline", "measurement": "regulatory T-cell change", "value": "-1.27%"}
{"Compound": "C[C@H]1C[C@H]2CSC(N)=N[C@@]2(c2nc(NC(=O)c3ccc(OC(F)F)cn3)cs2)CO1", "test": "measured: total Aβ", "test system": "healthy adults, plasma", "setting": "540 mg single dose, 24 h post-dose", "scale": "relative to: placebo", "measurement": "percent change from baseline", "value": "-69.4%"}
{"Compound": "CCCCCN1C[C@H](O)[C@@H](O)[C@H](O)[C@@H]1CO", "test system": "mouse Hexb-/-, liver", "setting": "300 mg/kg/day", "scale": "relative to: untreated Hexb-/- mice", "measurement": "number of increased sphingolipids", "value": 0}
{"Compound": "C[C@H](Oc1ccc(Br)cc1-c1ccon1)C(=O)O", "test": "muscle velocity recovery cycles", "test system": "human, tibialis anterior muscle", "setting": "600 mg once daily, multiple doses, multiple ascending dose", "scale": "relative to: placebo", "measurement": "CMAP amplitude", "value": "-0.052 mV"}
{"Compound": "CC1(C)CCC(CN2CCN(c3ccc(C(=O)NS(=O)(=O)c4ccc(NCC5CCOCC5)c([N+](=O)[O-])c4)c(Oc4cnc5[nH]ccc5c4)c3)CC2)=C(c2ccc(Cl)cc2)C1", "test": "cell kill, PI exclusion flow cytometry", "test system": "circulating neoplastic cells, human, peripheral blood", "setting": "24 h", "measurement": "EC50", "value": "1.65 µM"}
{"Compound": "N#Cc1ccc2c(-c3ccncc3)c(-c3ccc(F)cc3)nn2c1", "test": "kinase binding, competitor, MIB/MS competition, measured: SAK1", "test system": "Candida albicans cell lysate", "setting": "100 nM", "scale": "relative to: DMSO", "measurement": "log2 fold change", "value": -0.165}
{"Compound": "O=C1Nc2cc3[nH]nc(-c4ccncc4)c3cc2CN1Cc1ccccc1", "test": "RECIST v1.1", "test system": "human, relapsed or refractory advanced solid tumours", "setting": "intravenous, 0.45 mg/kg, pooled schedules", "measurement": "complete response, best response", "value": "0%"}
{"Compound": "CC[C@H](C)[C@H](NC(=O)[C@H](C)NC(=O)CNC(=O)[C@H](Cc1ccccc1)NC(=O)[C@H](CC(N)=O)NC(=O)[C@H](CC(N)=O)NC(=O)[C@H](CO)NC(=O)[C@H](CO)NC(=O)[C@H](Cc1c[nH]cn1)NC(=O)[C@@H](NC(=O)[C@H](CC(C)C)NC(=O)[C@H](Cc1ccccc1)NC(=O)[C@H](CC(N)=O)NC(=O)[C@H](C)NC(=O)[C@H](CC(C)C)NC(=O)[C@H](CCCNC(=N)N)NC(=O)[C@H](CCC(N)=O)NC(=O)[C@@H](NC(=O)[C@H](C)NC(=O)[C@@H]1CSSC[C@H](NC(=O)[C@@H](N)CCCCN)C(=O)N[C@@H](CC(N)=O)C(=O)N[C@@H]([C@@H](C)O)C(=O)N[C@@H](C)C(=O)N[C@@H]([C@@H](C)O)C(=O)N1)[C@@H](C)O)C(C)C)C(=O)N[C@@H](CC(C)C)C(=O)N[C@@H](CO)C(=O)N[C@@H](CO)C(=O)N[C@H](C(=O)N[C@@H](CC(N)=O)C(=O)N[C@H](C(=O)NCC(=O)N[C@@H](CO)C(=O)N[C@@H](CC(N)=O)C(=O)N[C@H](C(=O)N[C@@H](Cc1ccc(O)cc1)C(N)=O)[C@@H](C)O)C(C)C)[C@@H](C)O", "test system": "isolated mouse islets", "setting": "10 µM, 24 h", "scale": "relative to: control", "measurement": "insulin content reduction", "value": "~45%"}
{"Compound": "C[C@]12CC[C@@H]3c4ccc(O)cc4CC[C@H]3[C@@H]1CC[C@@H]2O", "test": "RT-qPCR, measured: CO", "test system": "Arabidopsis thaliana ING1:FLAG seedlings", "setting": "20 µM, 4 h after treatment, replicate rep2, unit not given", "scale": "relative to: TUB2", "measurement": "mRNA level", "value": 0.0417}
{"Compound": "Cc1ccc([C@@H]2O[C@H](CO)[C@@H](O)[C@H](O)[C@H]2O)cc1Cc1ccc(-c2ccc(F)cc2)s1", "test system": "Japanese type 2 diabetes patients", "setting": "25 mg, day 17", "scale": "relative to: day 1", "measurement": "change in fasting plasma glucose", "value": "-25 mg/dL"}
{"Compound": "CO[C@H]1/C=C/O[C@@]2(C)Oc3c(C)c(O)c4c(O)c(c(/C=N/N5CCN(C)CC5)c(O)c4c3C2=O)NC(=O)/C(C)=C\\C=C\\[C@H](C)[C@H](O)[C@@H](C)[C@@H](O)[C@@H](C)[C@H](OC(C)=O)[C@@H]1C", "test": "induction, measured: ABCB1 (P-gp)", "test system": "EpiIntestinal microtissues", "setting": "100 µM, 72 h", "scale": "relative to: DMSO", "measurement": "mRNA level", "value": "2.8 fold"}
{"Compound": "Cc1n[nH]c2ccc(-c3cc(OC[C@@H](N)Cc4ccccc4)cnc3-c3ccoc3)cc12", "test": "kinase binding, competitor, MIB/MS competition, measured: TOR1", "test system": "Candida albicans cell lysate", "setting": "100 nM", "scale": "relative to: DMSO", "measurement": "log2 fold change", "value": -0.226}
{"Compound": "CC[C@@H]1[C@H](F)C(=O)N[C@@H]1COc1nccc2cc(C(N)=O)c(OC)cc12", "test": "ATP-site probe binding, ActivX profiling, measured: PCTAIRE1, PCTAIRE3", "test system": "THP-1 cell lysate", "setting": "0.04 mM, Lys2 site", "measurement": "inhibition", "value": "0.457%"}
{"Compound": "CCOc1c([C@H](C)n2nc(C)c3c(N)ncnc32)cc(Cl)c(F)c1[C@@H]1CNC(=O)C1", "test": "Olink proximity extension proteomics, measured: CCL19", "test system": "human FL or MZL patients, plasma", "setting": "dose not given, week 8", "scale": "relative to: baseline", "measurement": "plasma protein level change", "value": "-65%"}
{"Compound": "N#Cc1ccn2c(-c3ccncc3)c(-c3ccc(F)cc3)nc2c1", "test": "kinase binding, competitor, MIB/MS competition, measured: CEK1", "test system": "Candida albicans cell lysate", "setting": "100 nM", "scale": "relative to: DMSO", "measurement": "log2 fold change", "value": 0.147}
{"Compound": "N=C(N)NCCC[C@H](NC(=O)[C@H](CCCNC(=N)N)NC(=O)[C@H](CCCCN)NC(=O)[C@H](CCC(N)=O)NC(=O)[C@H](CCCCN)NC(=O)[C@H](Cc1ccc(O)cc1)NC(=O)[C@@H](N)CCCCN)C(=O)N[C@@H](CO)C(=O)N[C@@H](Cc1ccc(O)cc1)C(=O)N[C@@H](CCCCN)C(=O)O", "test system": "dentin hypersensitivity patients", "setting": "10 µg/tooth single, day 22, unit not given", "scale": "relative to: baseline", "measurement": "tactile threshold change", "value": "-1 ± 0.89"}
{"Compound": "CCc1c(C)nc(-c2ccc(Cl)s2)nc1Nc1ccc(CC(=O)O)cc1", "test system": "C57BL/6J mouse, high-fat diet MASH model", "setting": "intraperitoneal, 0.3 mg/kg daily, 60% fat diet for 12 weeks, dosed final four weeks", "scale": "relative to: untreated", "measurement": "gonadal white adipose weight", "value": "no effect"}
{"Compound": "NCC(=O)Nc1cncc(-c2nn3c(=O)cc(N4CCNCC4)nc3s2)c1", "test": "ADP-induced platelet aggregation, light transmission aggregometry", "test system": "human, stable CAD on aspirin, ex vivo platelets", "setting": "subcutaneous, 0.05 mg/kg, 5 min post-dose, mean value, added: ADP 20 µM", "measurement": "inhibition", "value": "19.6%"}
{"Compound": "COc1ccc(C2=N[C@@H](c3ccc(Cl)cc3)[C@@H](c3ccc(Cl)cc3)N2C(=O)N2CCNC(=O)C2)c(OC(C)C)c1", "test": "histology", "test system": "Dmd C3333Y mice, tibialis anterior", "setting": "dose not given", "measurement": "necrotic area", "value": "8.8% and 8.6% and 11.9% and 7.1% and 13.2%"}
{"Compound": "COc1ncc(-c2nc3c(n2C(C)C)[C@H](c2ccc(Cl)cc2)N(c2cc(Cl)cn(C)c2=O)C3=O)c(OC)n1", "test": "International Working Group criteria", "test system": "human acute myeloid leukemia patients", "setting": "dose not given, response CR, all patients", "measurement": "best overall response", "value": "5.5%"}
{"Compound": "CC(=O)Oc1cc2c(s1)CCN(C(C(=O)C1CC1)c1ccccc1F)C2 (stereo not shown)", "test": "platelet aggregation, light transmittance aggregometry", "test system": "human, platelet-rich plasma", "setting": "dose not given, 30 min, IPA above 80 %, added: TRAP 15 µM", "scale": "relative to: patients", "measurement": "patients with IPA above threshold", "value": "0%"}
{"Compound": "COc1ccc2c(c1)CC[C@@H]1[C@@H]2CC[C@]2(C)[C@@H](NCCCCCCN3C(=O)C=CC3=O)CC[C@@H]12", "test": "open field test", "test system": "humanized UT (+/h+) mice, SAH model", "setting": "dose not given", "measurement": "distance travelled", "value": "25 m"}
{"Compound": "CCN(Cc1nc2c(N)nc3cc(-c4cc[nH]n4)ccc3c2[nH]1)C(C)=O", "test": "immunohistochemistry, measured: MPO+ TANs", "test system": "patients with advanced solid tumours, non-injected tumour lesions", "setting": "dose not given, monotherapy", "scale": "relative to: baseline", "measurement": "mean fold change", "value": 2.2}
{"Compound": "CN(C(=O)n1cnc(-c2ccc[n+]([O-])c2)c1)C1CCCCC1", "test": "measured: OEA", "test system": "human, plasma", "setting": "100 mg single dose", "measurement": "AUC(0-t)", "value": "816 ng·h/mL"}
{"Compound": "CO[C@H]1CC[C@H](N2C(=O)CNc3ncc(-c4ccc(C(C)(C)O)nc4)nc32)CC1", "test": "flow cytometry", "test system": "stimulated T cells, human, blood", "setting": "45 mg single dose, 5 h, mean", "scale": "relative to: baseline", "measurement": "p4EBP1 change from baseline", "value": "-48.3%"}
{"Compound": "c1ccc(-c2n[nH]cc2-c2ccnc3ccccc23)nc1", "test": "kinase binding, competitor, MIB/MS competition, measured: RCK2", "test system": "Candida albicans cell lysate", "setting": "100 nM", "scale": "relative to: DMSO", "measurement": "log2 fold change", "value": 1.55}
{"Compound": "CC(C)NCC(O)c1ccc(O)c(O)c1 (stereo not shown)", "test system": "ventricular cardiomyocytes, C57BL/6 mouse", "setting": "dose not given, 0.828 s", "measurement": "sarcomere length", "value": "1.53 µm"}
{"Compound": "CCO[C@H]1CCN(Cc2c(OC)cc(C)c3[nH]ccc23)[C@H](c2ccc(C(=O)O)cc2)C1", "test system": "PNH patients, blood", "setting": "oral, 25 mg then 100 mg, week 2, mean percent change", "scale": "relative to: baseline", "measurement": "C3d-positive type III RBCs", "value": "-53.5%"}
{"Compound": "COc1ccc(-c2cncc(N[C@@H](C)c3cccc(NC(=O)c4cncc(C)c4)c3)n2)cc1OC", "test": "measured: rno-miR-25-3p", "test system": "rat SU5416/hypoxia model, lung", "setting": "dose not given, unit not given", "scale": "relative to: SU5416/hypoxia vehicle", "measurement": "delta delta Ct", "value": -0.594}
{"Compound": "O=C(COc1ccc(Cl)cc1)NC12CC(c3nnc([C@H]4C[C@@H](OC(F)(F)F)C4)o3)(C1)C2", "test system": "healthy human, PBMC", "setting": "260 mg once daily, day 15, 24 h post-dose, median, added: sodium arsenite ex vivo", "scale": "relative to: baseline", "measurement": "ATF4 protein change", "value": "-60.9%"}
{"Compound": "CN(C)C(=N)N=C(N)N", "test system": "ZDF rat", "setting": "100 mg/kg/day, 6 weeks", "scale": "relative to: baseline", "measurement": "HbA1c change from baseline", "value": "3.09 ± 0.11 % points"}
{"Compound": "CN[C@@H]1COc2c(S(=O)(=O)NC(=O)Nc3c4c(cc5c3CCC5)CCC4)cnn2C1", "test": "measured: IL-18", "test system": "human participants, whole blood ex vivo", "setting": "900 mg single dose, 1 h, IL-18, circulating, adjusted for, added: LPS/ATP", "scale": "relative to: baseline", "measurement": "inhibition", "value": "99.1%"}
{"Compound": "Cc1nn(-c2nc3c(F)cc(F)cc3s2)c(O)c1C(c1ccc(C(F)(F)F)cc1)c1c(C)nn(-c2nc3c(F)cc(F)cc3s2)c1O", "test system": "mouse, cerulein-induced acute pancreatitis", "setting": "25 mg/kg", "measurement": "pancreas weight", "value": "0.166 g and 0.201 g and 0.173 g and 0.174 g and 0.196 g"}
{"Compound": "OC(CCN1CCCCC1)(c1ccccc1)C1CC2C=CC1C2 (stereo not shown)", "test": "resting-state EEG", "test system": "healthy elderly humans", "setting": "oral, 4 mg, eyes closed, LS mean", "measurement": "EEG gamma power, O2 Pz", "value": "0.9 µV²"}
{"Compound": "C[C@@H]1CCC[C@H](n2cnc(-c3cc(Cl)ccc3-n3cc(Cl)nn3)cc2=O)c2cc(ccn2)-c2c(cnn2C(F)F)NC1=O", "test system": "cynomolgus monkey plasma", "setting": "IC2× aPTT, STA-PTT reagent", "measurement": "concentration for aPTT prolongation", "value": "530 nM"}
{"Compound": "C=CCn1c(=O)c2cnc(Nc3ccc(N4CCN(C)CC4)cc3)nc2n1-c1ccc2c(n1)[C@@](O)(CC)CC2", "test system": "HT-29 xenograft, BALB/c nude mice", "setting": "oral, 60 mg/kg once daily x 22, day 21", "scale": "relative to: vehicle", "measurement": "tumour growth inhibition", "value": "15%"}
